Measurements from different studies.
Parts stem from different laboratories: compare values within a part only.

Sample 1 — method: aptamer microarray, sandwich; form: DNA with 2'F-ANA; medium: in vitro; tested at: 200 nM; together with: Cy3 exosite-II aptamer, 400 nM; direction: higher = stronger binding; sequence: GGTTGGTGTGGTTGG
Target: Prothrombin, mature alpha-thrombin (F2, Homo sapiens, UniProt P00734)
Notes: whole 15-mer aptamer, many near background
Modification	mean fluorescence intensity [a.u.]
2'F-ANA at 1 2 3 4 7 8 9 12 13 14 15	74.2
2'F-ANA at 2 3 5 7 10 11 14 15	71
2'F-ANA at 5 7 9 10 12 13 14	43.8
2'F-ANA at 1 3 4 6 7 9 12 15	324
2'F-ANA at 10 15	179
2'F-ANA at 4 7 8 9 11 13 15	183
2'F-ANA at 1 2 3 4 8 9 10 11 15	55.3
2'F-ANA at 4 5 8 10 11	55.6
2'F-ANA at 1 3 4 8 10 12 15	82.5
2'F-ANA at 1 2 6 7 10 12 13 14 15	48
2'F-ANA at 2 4 5 6 7 9 11 12	110
2'F-ANA at 1 2 3 4 6 7 11 14	58.2
2'F-ANA at 3 8 9 13 14 15	644
2'F-ANA at 6 7 8 9 10 12 13 14	120
2'F-ANA at 2 4 7 13 14 15	107
2'F-ANA at 1 2 3 5 9 10 13 15	48.4
2'F-ANA at 1 2 3 4 5 7 8 10 11 12 13 15	52.8
2'F-ANA at 2 3 4 6 8 11 12 15	650
2'F-ANA at 5 7 8 10 13 14	62
2'F-ANA at 1 3 4 5 6 8	63.4
2'F-ANA at 2 3 4 8	787
2'F-ANA at 1 2 7 10 11	49.6
2'F-ANA at 5 7 9 13 14	42.9

Sample 2 — method: RNA Bind-n-Seq; form: RNA; medium: in vitro; tested at: not given; notes: RNA with constant flanks, ends assumed; reference: input RNA pool; direction: higher = stronger binding
Target: RING finger protein unkempt homolog, zinc fingers 1-6, GST-SBP tag (UNK, Homo sapiens, UniProt Q9C0B0, residues 30-357)
Construct (chain): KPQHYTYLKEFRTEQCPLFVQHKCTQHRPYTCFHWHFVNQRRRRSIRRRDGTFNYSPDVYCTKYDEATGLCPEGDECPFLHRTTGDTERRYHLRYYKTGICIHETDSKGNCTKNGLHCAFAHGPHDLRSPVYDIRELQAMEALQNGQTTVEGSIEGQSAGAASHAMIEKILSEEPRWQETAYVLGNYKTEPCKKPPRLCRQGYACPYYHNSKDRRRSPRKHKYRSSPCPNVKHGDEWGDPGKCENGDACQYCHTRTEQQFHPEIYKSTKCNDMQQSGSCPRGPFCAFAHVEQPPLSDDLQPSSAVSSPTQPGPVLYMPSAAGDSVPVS
Sequence	bound/input enrichment
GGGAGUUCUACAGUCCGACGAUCUGAGUUCUAUUAUUGAUUAAAGAAGACAGAUUUACAUUCAGGAUUCUGGUGUCUGGAGGCUCCGCCUCAAAGCCAGUUUUGAUGACUUAGAAGGCAAUCUAUGUCACUGUCCCCACAAAGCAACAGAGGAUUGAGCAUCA	0.206 ratio
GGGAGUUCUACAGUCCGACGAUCGGAGGCUAUGGAGGCUAUGAUGAUUACAAUGGCUAUAAUGAUGGCUAUGGAUUUGGGUCAGACCGAUUUGGAAGAGACCUCAAUUACUGUUUUUCAGGAAUGUCUGAUCACAGAUACGGGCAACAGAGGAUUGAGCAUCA	0.15 ratio
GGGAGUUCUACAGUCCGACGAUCCCCCCUUUCAGGUGUGGUAUCAGUACGCUUUGAAGAAGAUGAAGACAGGAACUUGUGUUUAACCGCAUAUCCAUUAAAAGGGGACCAUGGAACUGUGGAUAUAGUAGACAAUUCGGACUGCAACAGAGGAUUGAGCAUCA	0.582 ratio
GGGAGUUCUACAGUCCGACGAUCGGCACACGGCUUUCUUUCUCUGUGUGUUCGCCUCUUUCUUCUCUUUUAUUUGCCUUAUUCUACCGGAUUUUUGUCCUCUAAGAUUCUACCUGGGAUUUUCCUUUGGAAAAGUUGCUGUGGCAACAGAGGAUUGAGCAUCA	0.549 ratio
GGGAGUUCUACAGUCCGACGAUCCACCACCACCACCACCACCCGUGCAGUUUCACAUGGAAGCUUGUACCUGUGUUACCUCUGCCGUAAGUUGCAUGUGCGAAGUAUAACCAAAGCGAUCAUGUUUAUGUUGACCCUGCCAUACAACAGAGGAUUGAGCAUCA	0.302 ratio
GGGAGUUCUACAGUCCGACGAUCUGUUUUGCACGGAUGGUUGGAAAUAGUGGAAAAGUCAUUGGAAUUGAUCACAUUAAAGAACCCGCCGAUGACUCAAUAACUAAUGUCAAAAAGGAUGACCCAAUGCUCCUGUCCUCGGGGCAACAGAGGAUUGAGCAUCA	0.0576 ratio
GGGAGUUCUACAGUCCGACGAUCGAAGCUGACAAGUGGAGCACGCUGAGUGCUGAUAUUGAGGAGACCUUCAAAACUCAAGACACCGCUGUGAUUUCUGCAAAGCUGACCGGCAUGCAGAACAGCUUGAUGAUGCUUGUGGAUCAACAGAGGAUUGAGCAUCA	0.145 ratio
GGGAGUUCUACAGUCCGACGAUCUGUAGAGCGAAUGUAUACCUGCUUCCCACAGGGGAGAUAGUUUAUUUUAUCGCCUCAGUGGCCGUCCUGUUUAAUUAUGAGGAGAGGACUCAGCGACACUACCUGGGUCAUACAGACUGUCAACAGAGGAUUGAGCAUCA	0.901 ratio

Sample 3 — method: protein-binding microarray; form: double-stranded DNA, one strand shown; medium: in vitro; tested at: 940 nM top; notes: 60-bp whole probe; together with: salmon DNA 0.4 mg/ml; reference: random background probes; direction: higher = stronger binding; all sequences stand within: GCCTAGCAC … GTCTTGATTCGCTTGACGCTGCTG
Target: Interferon regulatory factor 5, full length, phosphomimetic (IRF5, Homo sapiens, UniProt Q13568-2, residues 1-514, S451D/S453D/S456D/S462D)
Sequence	fitted relative affinity [z-score]
TTAGATACCGGGTTTCGATTAGTGCTA	5.07
GACGATCTCAGAATGGAGACGTGCTAG	-0.0377
TCAGTTTTCTAAACCATACTGTGCTAG	0.486
TCACAGCTCCCTTTCTCACTGTGCTAG	0.494
TTAGGTTTCGGTTACGGTTAGTGCTAG	15
GACGGTTTCGACTATCGGCACGTGCTA	8.08
GACGGACTGGACTATCGGAACGTGCTA	-0.308
TTAGGTTTCGGTTCTGGTTAGTGCTAG	14.5
GACGAACTGAGTTTCAAGACGTGCTAG	0.303
GACGCTATCCTTATCCTGACGTGCTAG	0.408
GATGAACTGAGTTTCGAGACGTGCTAG	3.04
TCAGGTATCGACACTGGGTTAGTGCTA	3.65
TCATTTTTCTAACTAAAACTGTGCTAG	0.708
TTAGGTTTCGGGTATCGCTTAGTGCTA	10.9
TTAGGGTTCGGTATCGGTTAGTGCTAG	5
GACGATATCAGTATCGAAACGTGCTAG	2.76
CACGATTTCGGGACTGGAGACGTGCTA	0.0753
TCACCTTTGCCTCATCTTACTGTGCTA	1.35

Sample 4 — method: protein binding microarray; form: double-stranded DNA, one strand shown; medium: in vitro; tested at: not given; reference: not given; direction: higher = stronger binding
Target: Histone acetyltransferase KAT6A, winged helix 1, GST fusion (KAT6A, Homo sapiens, UniProt Q92794, residues 1-85)
Notes: 8-mer, flanks averaged, mean of 2 arrays, mostly near background
Construct (chain): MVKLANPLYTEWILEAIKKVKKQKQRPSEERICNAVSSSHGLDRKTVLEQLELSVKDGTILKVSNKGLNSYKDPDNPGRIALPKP
Sequence	E-score
GTCTCATA	-0.128
TATCATCA	-0.00957
CGCCGTTC	0.353
CAGGAATG	-0.185
ATTATCAG	-0.128
CTCTAAGA	-0.00742
AGCGCCCG	0.385
ACTAAAAA	0.00711
AGACCGCC	0.284
AATTTAAT	-0.113
ATACCTGC	-0.0882
GCTGGGGA	-0.171
CTGAAAGA	-0.0595
CAAATTTA	-0.209
CAACAGGC	-0.0193
AGCAGCAT	-0.1
CCTGCCTA	-0.182
CTTTTAGC	-0.056

A few entries again (sample 3):
Sequence	fitted relative affinity [z-score]
TTAGGTTTCGGTTCTGGTTAGTGCTAG	14.5
GACGAACTGAGTTTCAAGACGTGCTAG	0.303
TCACCTTTGCCTCATCTTACTGTGCTA	1.35
TTAGATACCGGGTTTCGATTAGTGCTA	5.07
GACGGTTTCGACTATCGGCACGTGCTA	8.08
TTAGGGTTCGGTATCGGTTAGTGCTAG	5
TTAGGTTTCGGGTATCGCTTAGTGCTA	10.9
GACGGACTGGACTATCGGAACGTGCTA	-0.308
GATGAACTGAGTTTCGAGACGTGCTAG	3.04
GACGCTATCCTTATCCTGACGTGCTAG	0.408
TCAGTTTTCTAAACCATACTGTGCTAG	0.486
